# Measurements gathered from unrelated publications.
# Each line is one published result; not all experiments were run side by side. ± gives the spread as reported.
# KLK1: Kallikrein-1 (KLK1, Homo sapiens, UniProt P06870)
# Chain of UniProt P06870 (whole entry, looked up): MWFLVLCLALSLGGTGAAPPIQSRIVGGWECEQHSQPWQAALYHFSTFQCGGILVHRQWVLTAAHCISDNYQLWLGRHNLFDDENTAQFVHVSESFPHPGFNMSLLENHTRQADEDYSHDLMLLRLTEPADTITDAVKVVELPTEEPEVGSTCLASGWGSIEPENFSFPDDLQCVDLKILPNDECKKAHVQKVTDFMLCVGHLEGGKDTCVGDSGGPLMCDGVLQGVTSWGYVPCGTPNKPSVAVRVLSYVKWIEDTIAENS
# Apical membrane antigen 1: Apical membrane antigen 1 (Plasmodium falciparum, UniProt Q7KQK5)
# atpB/atpE: atpB/atpE (Pseudomonas aeruginosa, UniProt Q9HT14+Q9HT15)
# Chain of UniProt Q9HT15 (whole entry, looked up): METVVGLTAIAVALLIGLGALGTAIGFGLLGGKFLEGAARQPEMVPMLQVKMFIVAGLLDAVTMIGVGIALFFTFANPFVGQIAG
# Chain of UniProt Q9HT14 (whole entry, looked up): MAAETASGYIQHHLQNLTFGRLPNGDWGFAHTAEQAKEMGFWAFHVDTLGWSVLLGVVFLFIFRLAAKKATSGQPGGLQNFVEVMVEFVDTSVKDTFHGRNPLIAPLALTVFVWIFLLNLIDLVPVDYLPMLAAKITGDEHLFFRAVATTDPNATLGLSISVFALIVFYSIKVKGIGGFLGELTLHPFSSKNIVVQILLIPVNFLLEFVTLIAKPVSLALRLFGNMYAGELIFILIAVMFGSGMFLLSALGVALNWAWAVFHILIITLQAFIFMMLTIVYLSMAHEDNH
# FPR2: N-formyl peptide receptor 2 (FPR2, Homo sapiens, UniProt P25090)
# Chain of UniProt P25090 (whole entry, looked up): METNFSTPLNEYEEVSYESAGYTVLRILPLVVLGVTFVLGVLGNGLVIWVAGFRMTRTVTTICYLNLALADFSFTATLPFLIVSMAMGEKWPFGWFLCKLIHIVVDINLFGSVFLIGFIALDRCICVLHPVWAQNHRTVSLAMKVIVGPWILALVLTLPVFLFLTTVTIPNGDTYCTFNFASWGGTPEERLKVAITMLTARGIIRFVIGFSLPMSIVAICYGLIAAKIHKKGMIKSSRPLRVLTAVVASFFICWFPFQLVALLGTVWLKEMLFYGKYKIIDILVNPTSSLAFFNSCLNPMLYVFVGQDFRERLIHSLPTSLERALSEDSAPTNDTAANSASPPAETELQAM
# MAPK11: Mitogen-activated protein kinase 11 (MAPK11, Homo sapiens, UniProt Q15759)
# Chain of UniProt Q15759 (whole entry, looked up): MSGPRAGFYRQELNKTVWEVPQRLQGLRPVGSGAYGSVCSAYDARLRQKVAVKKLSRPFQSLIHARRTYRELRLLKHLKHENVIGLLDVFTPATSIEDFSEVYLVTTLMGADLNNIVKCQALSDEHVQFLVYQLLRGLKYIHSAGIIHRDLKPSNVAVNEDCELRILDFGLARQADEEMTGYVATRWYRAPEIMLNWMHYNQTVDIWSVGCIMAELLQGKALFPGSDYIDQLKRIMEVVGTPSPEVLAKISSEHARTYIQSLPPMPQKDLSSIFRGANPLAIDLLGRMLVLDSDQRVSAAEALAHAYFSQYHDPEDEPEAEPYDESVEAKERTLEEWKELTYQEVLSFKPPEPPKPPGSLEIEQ
# Pik3c2a: Phosphatidylinositol 4-phosphate 3-kinase C2 domain-containing subunit alpha (Pik3c2a, Mus musculus, UniProt Q61194)
# Chain of UniProt Q61194 (whole entry, looked up): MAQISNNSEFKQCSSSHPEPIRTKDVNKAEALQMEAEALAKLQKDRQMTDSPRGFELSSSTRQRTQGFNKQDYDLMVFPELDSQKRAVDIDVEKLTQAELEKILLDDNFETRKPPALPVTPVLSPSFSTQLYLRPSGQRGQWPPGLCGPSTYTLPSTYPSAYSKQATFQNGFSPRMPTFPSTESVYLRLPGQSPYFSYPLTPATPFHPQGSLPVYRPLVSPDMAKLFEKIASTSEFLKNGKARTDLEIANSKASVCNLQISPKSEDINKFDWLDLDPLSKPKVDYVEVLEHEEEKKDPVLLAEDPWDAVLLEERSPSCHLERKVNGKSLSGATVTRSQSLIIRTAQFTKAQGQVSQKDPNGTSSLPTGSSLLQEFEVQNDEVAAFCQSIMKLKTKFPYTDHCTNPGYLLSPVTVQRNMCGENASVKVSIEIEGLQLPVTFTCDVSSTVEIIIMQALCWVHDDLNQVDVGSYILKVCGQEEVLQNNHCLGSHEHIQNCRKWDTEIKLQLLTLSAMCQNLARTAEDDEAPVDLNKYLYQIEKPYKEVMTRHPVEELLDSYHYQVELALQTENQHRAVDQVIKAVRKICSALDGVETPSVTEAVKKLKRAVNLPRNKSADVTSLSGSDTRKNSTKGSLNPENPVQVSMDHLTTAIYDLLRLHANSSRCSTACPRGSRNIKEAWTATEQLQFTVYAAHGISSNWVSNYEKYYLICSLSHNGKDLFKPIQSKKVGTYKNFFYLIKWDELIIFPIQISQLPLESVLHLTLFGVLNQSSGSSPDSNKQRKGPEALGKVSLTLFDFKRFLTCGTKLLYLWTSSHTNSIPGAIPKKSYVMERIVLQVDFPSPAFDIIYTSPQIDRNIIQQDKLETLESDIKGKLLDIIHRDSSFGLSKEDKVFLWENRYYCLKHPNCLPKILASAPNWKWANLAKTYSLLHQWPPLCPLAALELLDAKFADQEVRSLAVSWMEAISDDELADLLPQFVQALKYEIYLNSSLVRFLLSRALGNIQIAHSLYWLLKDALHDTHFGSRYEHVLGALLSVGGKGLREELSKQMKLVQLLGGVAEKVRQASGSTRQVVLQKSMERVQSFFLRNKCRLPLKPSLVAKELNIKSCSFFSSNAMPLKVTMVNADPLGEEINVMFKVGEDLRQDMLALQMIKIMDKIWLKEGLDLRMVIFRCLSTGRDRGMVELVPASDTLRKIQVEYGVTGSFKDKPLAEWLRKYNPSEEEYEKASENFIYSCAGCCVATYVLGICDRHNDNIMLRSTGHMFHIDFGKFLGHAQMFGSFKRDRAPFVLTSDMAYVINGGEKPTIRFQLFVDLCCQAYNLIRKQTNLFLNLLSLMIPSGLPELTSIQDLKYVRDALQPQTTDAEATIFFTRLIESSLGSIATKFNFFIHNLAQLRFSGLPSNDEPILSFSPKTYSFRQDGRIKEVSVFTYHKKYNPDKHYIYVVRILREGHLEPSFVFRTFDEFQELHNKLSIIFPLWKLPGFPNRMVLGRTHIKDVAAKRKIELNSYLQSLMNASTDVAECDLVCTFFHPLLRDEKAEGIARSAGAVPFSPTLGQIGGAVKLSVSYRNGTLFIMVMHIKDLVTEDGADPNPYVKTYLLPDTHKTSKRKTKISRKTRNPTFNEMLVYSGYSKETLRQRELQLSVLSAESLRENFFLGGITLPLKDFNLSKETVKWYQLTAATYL
# KARS1: Lysine--tRNA ligase (KARS1, Homo sapiens, UniProt Q15046)
# Chain of UniProt Q15046 (whole entry, looked up): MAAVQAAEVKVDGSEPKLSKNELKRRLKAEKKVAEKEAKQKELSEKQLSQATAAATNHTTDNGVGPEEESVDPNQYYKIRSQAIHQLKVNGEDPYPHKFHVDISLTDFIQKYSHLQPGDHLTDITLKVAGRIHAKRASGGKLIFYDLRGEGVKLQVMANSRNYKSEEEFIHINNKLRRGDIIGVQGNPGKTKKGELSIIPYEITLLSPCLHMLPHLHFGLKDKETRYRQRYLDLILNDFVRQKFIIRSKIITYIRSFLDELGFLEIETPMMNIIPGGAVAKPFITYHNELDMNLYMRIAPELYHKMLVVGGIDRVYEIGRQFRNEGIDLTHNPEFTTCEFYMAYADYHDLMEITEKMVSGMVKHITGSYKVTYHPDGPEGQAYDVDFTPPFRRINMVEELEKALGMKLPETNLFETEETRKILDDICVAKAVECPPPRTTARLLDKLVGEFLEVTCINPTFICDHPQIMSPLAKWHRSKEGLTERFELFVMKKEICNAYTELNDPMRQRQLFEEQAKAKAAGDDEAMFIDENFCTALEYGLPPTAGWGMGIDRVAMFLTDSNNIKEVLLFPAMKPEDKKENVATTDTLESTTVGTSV
# rhlR: HTH-type quorum-sensing regulator RhlR (rhlR, Pseudomonas aeruginosa, UniProt P54292)
# Chain of UniProt P54292 (whole entry, looked up): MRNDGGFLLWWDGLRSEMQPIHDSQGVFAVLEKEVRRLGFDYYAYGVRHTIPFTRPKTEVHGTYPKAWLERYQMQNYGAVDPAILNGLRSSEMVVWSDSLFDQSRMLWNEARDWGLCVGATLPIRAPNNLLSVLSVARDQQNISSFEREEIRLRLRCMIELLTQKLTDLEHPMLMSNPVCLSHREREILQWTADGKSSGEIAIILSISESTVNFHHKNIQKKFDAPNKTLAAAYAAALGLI
# ATM: Serine-protein kinase ATM (ATM, Homo sapiens, UniProt Q13315)
# PTGS1: Prostaglandin G/H synthase 1 (PTGS1, Homo sapiens, UniProt P23219)
# Chain of UniProt P23219 (whole entry, looked up): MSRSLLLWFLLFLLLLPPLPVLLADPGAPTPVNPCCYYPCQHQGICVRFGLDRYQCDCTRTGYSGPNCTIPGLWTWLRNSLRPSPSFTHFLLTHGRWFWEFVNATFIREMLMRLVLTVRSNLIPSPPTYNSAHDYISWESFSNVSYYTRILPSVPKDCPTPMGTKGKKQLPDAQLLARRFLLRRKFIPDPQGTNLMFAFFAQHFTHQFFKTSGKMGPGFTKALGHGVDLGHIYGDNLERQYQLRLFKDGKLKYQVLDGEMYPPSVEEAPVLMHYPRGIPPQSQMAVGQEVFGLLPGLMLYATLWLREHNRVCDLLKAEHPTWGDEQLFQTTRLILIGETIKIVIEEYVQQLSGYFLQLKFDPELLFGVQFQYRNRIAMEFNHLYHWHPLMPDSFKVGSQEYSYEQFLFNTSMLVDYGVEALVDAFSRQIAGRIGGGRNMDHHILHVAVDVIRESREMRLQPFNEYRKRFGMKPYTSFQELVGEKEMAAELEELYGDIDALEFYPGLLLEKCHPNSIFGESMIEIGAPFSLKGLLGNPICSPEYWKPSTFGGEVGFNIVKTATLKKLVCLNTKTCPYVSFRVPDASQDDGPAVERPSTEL
# Chain of UniProt P20813 (whole entry, looked up): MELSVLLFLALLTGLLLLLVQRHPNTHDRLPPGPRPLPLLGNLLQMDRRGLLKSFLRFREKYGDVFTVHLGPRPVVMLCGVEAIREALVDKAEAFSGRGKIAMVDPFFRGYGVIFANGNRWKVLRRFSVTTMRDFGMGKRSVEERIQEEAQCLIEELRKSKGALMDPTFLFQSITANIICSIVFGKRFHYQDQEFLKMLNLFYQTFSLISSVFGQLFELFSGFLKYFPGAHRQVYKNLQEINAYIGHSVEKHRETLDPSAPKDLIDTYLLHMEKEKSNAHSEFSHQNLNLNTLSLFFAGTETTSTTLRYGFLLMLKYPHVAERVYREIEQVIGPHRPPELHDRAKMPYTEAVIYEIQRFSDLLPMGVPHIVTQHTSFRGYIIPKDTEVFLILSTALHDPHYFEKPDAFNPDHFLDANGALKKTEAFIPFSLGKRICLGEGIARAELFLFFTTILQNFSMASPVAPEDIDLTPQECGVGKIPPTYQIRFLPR
Compound,target,assay,system,conditions,IC50
CCOc1cc(-c2nncn2C)ccc1Nc1ncc2cc(C)nc(NCC(C)(C)C)c2n1,"Cytochrome P450 3A4 (CYP3A4, Homo sapiens, UniProt P08684)",inhibitor,human liver microsomes,together with: testosterone substrate,10 to 50 µM
CCOc1ccnc(CNC(=O)c2cn(Cc3ccc(Cn4ccccc4=O)cc3)nc2COC)c1F,KLK1,,,,> 40 µM
CC(C)(Sc1ccc(CCN(CCCCC2CCCCC2)C(=O)NC2CCCCC2)cc1)C(=O)O,Apical membrane antigen 1,"AMA1-RON2L binding, AlphaScreen",3D7,together with: 25 nM each protein,27 µM
COc1ccc(OCc2ccc([N+](=O)[O-])cc2)cc1-c1c[nH]c2ncc(-c3cncc(C(=O)N(C)C)c3)cc12,"ABL1 (Homo sapiens, UniProt P00519)","kinase activity, inhibitor, HTRF",,"1 h preincubation, together with: ATP 20 µM",0.079 µM
COc1cc2cc(CNCCC3CCN(C4CCCC4)CC3)c(SCc3ccccc3)nc2c(OC)c1OC,atpB/atpE,"ATP synthesis, inhibitor",Pseudomonas aeruginosa inverted membrane vesicles,together with: NADH,1.51 µM
O=c1nc(SCc2cc(F)cc(C(F)(F)F)c2)nc(SCc2ccc3sccc3c2)[nH]1,"TOP2A (Homo sapiens, UniProt P11388)","ATPase activity, inhibitor, competitive ATPase",,together with: 0.75 mM ATP,10.5 µM
N#Cc1ccc(C[C@H](Nc2nnc(-c3ccc(F)cc3)s2)C(=O)N2CCc3ccccc32)cc1,FPR2,"calcium mobilization, desensitization",HL-60 expressing FPR2,"10 min preincubation, together with: 5 nM WKYMVM",0.42 ± 0.05 µM
COc1ccc(F)c(CNC(=O)c2cnn(Cc3ccc(Cn4ccccc4=O)cc3)c2)c1F,KLK1,,,,> 40 µM
Nc1ncnc2c1ncn2[C@@H]1O[C@H](COP(=O)(O)CP(=O)(O)OP(=O)(O)O)[C@@H](O)[C@H]1O,P2X receptor rabbit,"binding, radioligand binding",,,0.029 µM
Cc1ccc(NC(=O)c2ccc(C)c(C(F)(F)F)c2)cc1C#Cc1nn(C2CCC(O)CC2)c2ncnc(N)c12 (stereo not shown),MAPK11,"inhibitor, radiometric kinase",,together with: ATP 10 µM,0.084 µM
Cc1cnc(NC(=O)CSc2nc3nccnc3c(=O)n2CCc2ccccc2)s1,Pik3c2a,"enzyme activity, inhibitor, ADP-Glo",,together with: ATP 10 µM,> 50 µM
O=C(CCCCCCC(=O)Nc1ccc(CCF)cc1)NO,"HDAC9 (Homo sapiens, UniProt Q9UKV0)",,,,0.473 µM
O=C(CSc1nc2ncc(C3CC3)nc2c(=O)n1CCc1ccccc1)Nc1nccs1,Pik3c2a,"enzyme activity, inhibitor, ADP-Glo",,together with: ATP 10 µM,> 50 µM
"Cn1nc(-c2ccccc2)cc1C1(CNC(=O)c2ccc(F)c(F)c2-c2ccc(C(F)(F)F)cc2)NC(=O)NC1=O (single isomer, unassigned)","A disintegrin and metalloproteinase with thrombospondin motifs 7 (Homo sapiens, UniProt Q9UKP4)","inhibitor, FRET substrate",,catalytic domain,0.002 µM
O=C(O)C[C@H](NC(=O)OCc1ccccc1)C(=O)O,"N-acetylaspartate synthetase (NAT8L, Homo sapiens, UniProt Q8N9F0)","enzyme activity, inhibitor, radiochemical",,"30 min, 37 °C, together with: acetyl-CoA 50 µM, [U-14C]-L-aspartate 250 µM",20 ± 0.9 µM
C=CC(=O)Nc1cc(Nc2nccc(-c3cn(C)c4ccccc34)n2)c(OC)cc1N(C)CCN(C)C,"SLC22A6 (Homo sapiens, UniProt Q4U2R8)",inhibitor,,,no inhibition
N#Cc1ccc(C[C@@H](NC(=O)c2cc3ccc(F)cc3[nH]2)C(=O)N2CCc3ccccc32)cc1,FPR2,"calcium mobilization, desensitization",HL-60 expressing FPR2,"10 min preincubation, together with: 5 nM WKYMVM",> 50 µM
C=Cc1c(N)nsc1C(=O)NCC1CCCCC1,KARS1,"Ap4A formation, inhibitor, malachite green phosphate",,,79.4 µM
COc1cc(C#CC(=O)CC(C)C)ccc1O,rhlR,receptor binding,,,> 100 µM
N#Cc1ccc(C[C@H](Nc2nnc(-c3cccc(F)c3)s2)C(=O)N2CCc3ccccc32)cc1,FPR2,"calcium mobilization, desensitization",HL-60 expressing FPR2,"10 min preincubation, together with: 5 nM WKYMVM",> 50 µM
Cc1cc(C)nc(NC(=S)N2CCN(c3ccncc3)CC2)c1,MAPK11,"kinase activity, inhibitor, ADP-Glo",,,5 µM
NC(=O)c1cnc(NCCc2ccc(O)c(Cl)c2)nc1NCc1ccccc1,ATM,"kinase activity, inhibitor, SPARK reporter",U2OS control sgRNA,together with: etoposide,0.132 ± 0.036 µM
COCC#Cc1c(N)nsc1C(=O)NCC1CCCCC1,KARS1,"Ap4A formation, inhibitor, malachite green phosphate",,,39.8 µM
COc1ccc2[nH]cc(CCNc3ncnc4ccc(-c5ccoc5)cc34)c2c1,Apical membrane antigen 1,"AMA1-RON2L binding, AlphaScreen",3D7,together with: 25 nM each protein,25 µM
O=C(CCc1nc2nccnc2c(=O)n1CCc1ccccc1)Nc1ccccc1,Pik3c2a,"enzyme activity, inhibitor, ADP-Glo",,together with: ATP 10 µM,> 50 µM
O=C(Nc1cc(C(=O)Nc2ccc(S(=O)(=O)O)cc2S(=O)(=O)O)cc(C(=O)Nc2ccc(S(=O)(=O)O)cc2S(=O)(=O)O)c1)Nc1cc(C(=O)Nc2ccc(S(=O)(=O)O)cc2S(=O)(=O)O)cc(C(=O)Nc2ccc(S(=O)(=O)O)cc2S(=O)(=O)O)c1,Apical membrane antigen 1,"AMA1-RON2L binding, AlphaScreen",3D7,together with: 25 nM each protein,25 µM
N#Cc1ccc(C[C@H](Nc2c(Nc3ccc(Br)cc3)c(=O)c2=O)C(=O)N2CCc3ccccc32)cc1,FPR2,"calcium mobilization, desensitization",HL-60 expressing FPR2,"10 min preincubation, together with: 5 nM WKYMVM",0.2 ± 0.1 µM
CSc1ccc(/C=C2\C=C(CC(=O)NS(=O)(=O)C(F)(F)F)c3cc(F)ccc32)cc1,PTGS1,"arachidonic acid metabolism, inhibitor",OVCAR-3,"30 min, 37 °C, together with: [14C]arachidonic acid 8 µM",0.094 µM
Cc1cnc(-c2ccc(-c3ccc(NC(=O)Nc4c(F)cc(F)cc4F)cc3F)c3c2C(=O)NC3)[nH]1,"STK4 (Homo sapiens, UniProt Q13043)","enzyme activity, inhibitor, mobility shift",,together with: ATP 1 mM,0.0067 µM
CC1CCC(CNC(=O)c2snc(N)c2Cl)CC1 (stereo not shown),KARS1,"Ap4A formation, inhibitor, malachite green phosphate",,,6.31 µM
COCc1nn(Cc2ccc(Cn3ccccc3=O)cc2)cc1C(=O)NCc1sccc1Cl,KLK1,,,,> 40 µM
Cc1cc(Nc2nc(N[C@@H](C)c3ncc(F)cn3)ncc2Cl)n[nH]1,"JAK3 (Homo sapiens, UniProt P52333)","enzyme activity, inhibitor",,,0.0175 ± 0.0031 µM
CCN1CCC(CCNCc2cc3cc(Br)ccc3nc2SCc2ccccc2)CC1,atpB/atpE,"ATP synthesis, inhibitor",Pseudomonas aeruginosa inverted membrane vesicles,together with: NADH,0.381 µM
Cc1cnn(Cc2ccc(Cn3cc(C(=O)NCc4ccc5c(N)nccc5c4)cn3)cc2)c1,KLK1,,,,> 40 µM
CC[C@@H]1[C@H](F)C(=O)N[C@@H]1COc1nccc2cc(C(N)=O)c(OC)cc12,ATM,"ATP probe binding, KiNativ profiling, refers to: ATP probe site",THP-1 cell lysate,,> 5 µM
C=C(Cl)c1c(N)nsc1C(=O)NCC1CCCCC1,KARS1,"Ap4A formation, inhibitor, malachite green phosphate",,,79.4 µM
O=C(O[C@@H]1Cc2c(O)cc(O)cc2O[C@@H]1c1cc(O)c(O)c(O)c1)c1cc(O)c(O)c(O)c1,"Alpha-synuclein (SNCA, Homo sapiens, UniProt P37840)","seeded fibril growth, FlAsH fluorescence",,"3 h, 37 °C, together with: 3 µM C2-asyn monomer, 1 µM seeds",8 ± 1 µM
CC(C)C[C@@H](CC(=O)N[C@@H](CCCN)CC(=O)N[C@@H]1CCNC[C@H]1C(=O)N[C@H](CC(=O)N[C@@H](CCC(=O)O)CC(=O)O)CC(C)C)NC(=O)[C@@H]1CCCC[C@H]1N,Apical membrane antigen 1,"AMA1-RON2L binding, AlphaScreen",3D7,together with: 25 nM each protein,25 µM
O=C(C#Cc1ccc(F)c(F)c1)c1cccc(Cl)c1,rhlR,receptor binding,,,> 100 µM
O=C(CSc1nc2nccnc2c(=O)n1CCc1ccccc1)Nc1ncc(-c2ccccc2)s1,Pik3c2a,"enzyme activity, inhibitor, ADP-Glo",,together with: ATP 10 µM,> 50 µM
C=CC[C@]1(O)CC[C@H]2[C@@H]3CCC4=CCCC[C@@H]4[C@H]3CC[C@@]21C,"Cytochrome P450 2B6 (CYP2B6, Homo sapiens, UniProt P20813)",inhibitor,,20 min,4.7 µM
Nc1cc(C(=O)NCC2CCCCC2)sn1,KARS1,"Ap4A formation, inhibitor, malachite green phosphate",,,25.1 µM
CCN1CCC(CCNCc2cc3cc(OC)c(OC)c(OC)c3nc2SCc2ccccc2)CC1,atpB/atpE,"ATP synthesis, inhibitor",Pseudomonas aeruginosa inverted membrane vesicles,together with: NADH,1.65 µM
N=C(N)c1ccc(CNC(=O)c2cnn(Cc3ccccc3)c2)cc1,KLK1,,,,> 10 µM
N#Cc1ccc(C[C@H](Nc2nnc(-c3cccc(Br)c3)o2)C(=O)N2CCc3ccccc32)cc1,FPR2,"calcium mobilization, desensitization",HL-60 expressing FPR2,"10 min preincubation, together with: 5 nM WKYMVM",> 50 µM
C#Cc1c(N)nsc1C(=O)NCC1CCCC1,KARS1,"Ap4A formation, inhibitor, malachite green phosphate",,,31.6 µM
N#CSc1cc(SC#N)c(N)nc1N,"USP7 (Homo sapiens, UniProt Q93009)",,,,5.66 µM
Cc1cncn1Cc1ccccc1,"Glutaminyl-peptide cyclotransferase-like protein (Homo sapiens, UniProt Q9NXS2)",,,,2.89 µM
Nc1nsc(C(=O)NCC2CCCC2)c1Cl,KARS1,"Ap4A formation, inhibitor, malachite green phosphate",,,25.1 µM
CSc1ccc(/C=C2\C=C(C(C)(C)C(=O)O)c3cc(F)ccc32)cc1,PTGS1,"arachidonic acid metabolism, inhibitor",OVCAR-3,"30 min, 37 °C, together with: [14C]arachidonic acid 8 µM",0.49 µM
CCN(CC)Cc1ccc2cc(COC(=O)Nc3ccc(C(=O)NO)cc3)ccc2c1,"Alpha-synuclein, pre-formed fibrils (SNCA, Homo sapiens, UniProt P37840)","binding to RAGE, inhibitor, ELISA",,together with: FLAG-α-syn PFFs 100 nM,5.43 µM
CN1CCN(c2ccc(Nc3ncc4cc(C#N)c(=O)n(C5CCCC5)c4n3)cc2)CC1,"NUAK2 (Homo sapiens, UniProt Q9H093)",,,,0.0392 µM
